Assay results of several laboratories.
Compare with care: the assays were run in different laboratories. “And” joins repeats or separate records; there may be more than shown.
Target: Muscarinic acetylcholine receptor M1 (CHRM1, Homo sapiens, UniProt P11229)
Sequence (P11229 1-460, as in one of the studies): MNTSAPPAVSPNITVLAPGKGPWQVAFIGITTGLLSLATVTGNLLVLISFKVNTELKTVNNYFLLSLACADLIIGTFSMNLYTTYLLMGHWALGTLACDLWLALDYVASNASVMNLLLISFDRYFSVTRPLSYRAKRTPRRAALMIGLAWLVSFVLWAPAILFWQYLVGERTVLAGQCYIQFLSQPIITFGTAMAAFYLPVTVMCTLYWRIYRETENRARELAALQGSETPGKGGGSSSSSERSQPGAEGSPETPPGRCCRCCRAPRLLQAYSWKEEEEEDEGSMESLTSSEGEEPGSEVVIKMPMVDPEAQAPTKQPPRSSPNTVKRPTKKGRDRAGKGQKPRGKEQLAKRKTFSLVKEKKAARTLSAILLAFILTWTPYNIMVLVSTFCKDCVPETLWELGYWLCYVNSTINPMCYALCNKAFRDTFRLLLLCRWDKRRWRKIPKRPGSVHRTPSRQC

SMILES	assay	setting	scale	endpoint	result
O=C(O)c1ccc(-c2nc(-c3ccccc3Cl)c3sccn23)cc1	radioligand binding	10 µM, safety screen panel	relative to: control	specific binding	94.6% and 102%
CCCO[C@H]1[C@H](O)[C@@H](N)[C@@H](O[C@H]2[C@H](O[C@@H]3O[C@H](CO)[C@@H](O[C@H]4O[C@@H](CN)[C@@H](O)[C@H](O)[C@H]4N)[C@H]3O)[C@@H](O)[C@H](N)C[C@@H]2N)O[C@@H]1CO	radioligand binding	10 µM, 1% DMSO	–	specific binding	6%
CS(C)(=O)=Nc1ccc(-c2ccc(-c3nc4cc(O[C@@H]5CO[C@H]6[C@@H]5OC[C@H]6O)[nH]c4cc3F)cc2)cc1	calcium signal, antagonist	10 µM	–	inhibition	56%
Cc1cc(-c2ccc3ccccc3c2)nnc1NCCN1CCN(C)CC1	antagonist	concentration not given	–	antagonist activity	negative
Cc1cc(Nc2nc(C[C@@]3(C(=O)O)CCN(Cc4cccc(Cl)c4F)[C@H](C)C3)cc(C)c2F)[nH]n1	agonist	10 µM	–	activation	0.01%
C/C(=N\OCCCN1CCCCC1)c1ccc(C(F)(F)F)cc1	antagonist, IP-One	10 µM	–	inhibition	26.7%
Cc1sc2c(c1C)C(c1ccc(Cl)cc1)=NC(CC(=O)OC(C)(C)C)c1nnc(C)n1-2 (stereo not shown)	specific binding	1 µM	–	inhibition	-14%
N[C@H](C(=O)N1CCCC1)C1CCN(c2nccc3c(-c4ncc(Cl)cc4Cl)cccc23)CC1	functional response, antagonist	10 µM	–	inhibition	50%
CN[C@@H]1[C@H](O)[C@H](NC)[C@H]2O[C@]3(O)[C@H](O[C@@H]2[C@H]1O)O[C@H](C)C[C@H]3NC(=O)Cc1cc(Cl)ccn1	ligand displacement, radioligand	10 µM	–	inhibition	0%
CCc1nnc(-c2c(OC)cc(-c3cnc4cc(-c5cnn(C)c5)ccn34)cc2OC)o1	antagonist radioligand, radioligand binding	10 µM, SafetyScreen44 M1 replicate 2	lower = stronger displacement	remaining binding	101%

Some of these lines once more:
SMILES	assay	setting	scale	endpoint	result
Cc1sc2c(c1C)C(c1ccc(Cl)cc1)=NC(CC(=O)OC(C)(C)C)c1nnc(C)n1-2 (stereo not shown)	specific binding	1 µM	–	inhibition	-14%
